Published values collected from several papers.
Numbers after ± are the reported error. In brackets after ≈: the same amount, converted by molar mass.

| SMILES | cell line | test | test system | setting | scale | endpoint | result |
| --- | --- | --- | --- | --- | --- | --- | --- |
| COc1ccc(Nc2c(NC3CCN(Cc4ccccc4)CC3)c(=O)c2=O)cc1OC | SH-SY5Y | MTT |  | 6.25 µM, 24 h |  | viability | 76.4 ± 1.98% |
| O=C1/C(=N\NC(=S)NN=Cc2cccs2)c2ccccc2N1Cc1ccccc1 | CRFK | cell morphology |  |  |  | minimum cytotoxic concentration | 63 µM |
| CC[C@H](C)[C@H](NC(=O)[C@H](CCC(=O)O)NC(=O)CNC(=O)[C@@H](NC(=O)[C@H](CC(C)C)NC(=O)[C@H](CC(C)C)NC(=O)[C@H](CC(C)C)NC(=O)[C@H](CC(C)C)NC(=O)[C@H](CS)NC(=O)[C@H](CO)NC(=O)[C@H](Cc1ccccc1)NC(=O)CNC(=O)[C@H](CCCNC(=N)N)NC(=O)[C@@H]1CCCN1C(=O)[C@H](C)NC(=O)[C@H](CCSC)NC(=O)CNC(=O)CNC(=O)[C@H](Cc1ccccc1)NC(=O)[C@H](CCCCN)NC(=O)[C@H](Cc1c(C)cc(O)cc1C)NC(=O)[C@H](N)CCCNC(=N)N)[C@@H](C)O)C(=O)N[C@@H](CC(=O)O)C(=O)N[C@@H](CC(C)C)C(=O)N1CCC[C@H]1C(=O)N[C@H](C(=O)N[C@@H](CCCCN)C(=O)N[C@@H](CCCNC(=N)N)C(=O)N[C@@H](CCCNC(=N)N)C(=O)N[C@@H](C)C(N)=O)C(C)C | bEnd.3 |  |  | 10 µM, 4 h, FITC-labelled, added: FBS 10% | baseline: SS-31 | cellular uptake | 4.6 fold |
| N=C(N)NCCC[C@@H]1NC(=O)[C@H](Cc2csc3ccccc23)NC(=O)[C@@H](Cc2ccccc2)NC(=O)[C@H](Cc2ccccc2)NC(=O)[C@H](CCC(=O)NCCOCCOCC(=O)N[C@@H](CCCCNC(=O)c2ccc3c(c2)C(=O)OC32c3ccc4cc(O)ccc4c3Oc3c2ccc2cc(O)ccc32)C(N)=O)NC(=O)[C@@H](CCCNC(=N)N)NC(=O)[C@H](CCCNC(=N)N)NC(=O)[C@@H](CCCNC(=N)N)NC1=O | HeLa |  |  | 0.5 µM, 1% FBS | baseline: CPP12 | endosomal escape efficiency | 198 ± 7% |
| Cc1c(Br)cnc2c1NC(=O)c1cccnc1N2C1CC1 | primary human hepatocytes | CYP3A4 activity, inducer |  | 100 µM, 72 h, added: midazolam 1'-hydroxylation | baseline: untreated | fold change | no effect |
| CC(C)C[C@H](NC(=O)[C@H](CCCCN)NC(=O)[C@H](CC(C)C)NC(=O)[C@H](CC(C)C)NC(=O)[C@H](CCCCN)NC(=O)[C@H](CCCCN)NC(=O)[C@H](CC(C)C)NC(=O)[C@H](CC(C)C)NC(=O)[C@H](CCCCN)NC(=O)[C@H](CC(C)C)NC(=O)[C@H](CC(C)C)NC(=O)[C@H](CCCCN)NC(=O)[C@H](CCCCN)NC(=O)[C@H](CC(C)C)NC(=O)[C@@H](N)CSSC[C@H](N)C(=O)N[C@@H](CC(C)C)C(=O)N[C@@H](CCC(=O)O)C(=O)N[C@@H](Cc1c[nH]cn1)C(=O)N[C@@H](CC(C)C)C(=O)N[C@@H](CC(C)C)C(=O)N[C@@H](CCC(=O)O)C(=O)N[C@@H](Cc1c[nH]cn1)C(=O)N[C@@H](CC(C)C)C(=O)N[C@@H](CCC(=O)O)C(=O)N[C@@H](Cc1c[nH]cn1)C(=O)N[C@@H](CC(C)C)C(=O)N[C@@H](CC(C)C)C(=O)N[C@@H](CCC(=O)O)C(=O)N[C@@H](Cc1c[nH]cn1)C(N)=O)C(N)=O | mouse erythrocytes | hemolysis |  | 1 h, 37 °C |  | HC10 | ~148 µM |
| C=C(C)[C@@H]1CC[C@]2(CO)CC[C@]3(C)[C@H](CC[C@@H]4[C@@]5(C)CCCNC(C)(C)[C@@H]5CC[C@]43C)[C@@H]12 | primary HFF | cell viability, CellTiter-Glo |  | HCMV AD169 assay setting |  | CC50 | 17.2 µM |
| NNc1nc2cc3ccccc3cc2c(=O)n1Cc1ccccc1 | BGM | morphology and trypan blue |  | 72 h |  | maximum non-toxic concentration | 60 µg/mL |
| Cc1ccc(CNc2c(NC3CCN(Cc4ccccc4)CC3)c(=O)c2=O)cc1 | SH-SY5Y | MTT |  | 6.25 µM, 24 h |  | viability | 102 ± 1.74% |
| Cc1cccc2c1NC(=O)C2=Cc1ccc(-c2cccc(C(=O)N3CCCN(C)CC3)c2)o1 (mixture of isomers) | MDCK-MDR1 cells |  |  |  |  | efflux ratio | 1.61 |
| CSCC[C@H](NC(=O)CCCCCNC(=S)Nc1ccc2c(c1)C(=O)OC21c2ccc(O)cc2Oc2cc(O)ccc21)C(=O)N[C@@H](C)C(=O)N[C@@H](CC(N)=O)C(=O)N[C@@H](CC(C)C)C(=O)NCC(=O)N[C@@H](Cc1ccc(O)cc1)C(=O)N[C@@H](Cc1c[nH]c2ccccc12)C(=O)N[C@@H](CC(C)C)C(=O)N[C@@H](CC(C)C)C(=O)N[C@@H](C)C(=O)N[C@@H](CC(C)C)C(=O)N[C@@H](Cc1ccccc1)C(=O)N[C@H](C(=O)N[C@H](C(=O)N[C@@H](Cc1ccc(O)cc1)C(=O)N[C@@H](Cc1c[nH]c2ccccc12)C(=O)N[C@H](C(=O)N[C@@H](CC(=O)O)C(=O)N[C@@H](CC(C)C)C(=O)NCC(=O)N[C@@H](CC(C)C)C(=O)N[C@H](C(=O)N[C@@H](CCCCN)C(=O)N[C@@H](CCCCN)C(=O)N[C@@H](CCCNC(=N)N)C(=O)N1CCC[C@H]1C(=O)N[C@@H](CCCCN)C(=O)N1CCC[C@H]1C(=O)O)C(C)C)[C@@H](C)O)[C@@H](C)O)C(C)C | human PBMCs | imaging flow cytometry, FITC-labelled |  | 1 µM, 30 min | baseline: CD19+ B cells | cells with surface-bound peptide | 50.3% |
| CC1C(=NOCc2cc(-c3ccc(Cl)cc3)no2)C(C)C(c2ccc(Br)cc2)OC1c1ccc(Br)cc1 (centres unmarked) | human PBMC | cytotoxicity, MTT |  |  |  | IC50 | 489 µg/mL (≈ 759 µM) |
| O=C(CCCC[C@@H]1SC[C@@H]2NC(=O)N[C@@H]21)NCCCC[C@@H](NC(=O)[C@@H](Cc1ccccc1)NC(=O)[C@@H](Cc1ccccc1)NC(=O)Cc1ccc2ccccc2c1)C(=O)N[C@H](Cc1ccc(OP(=O)(O)O)cc1)C(=O)O | HS5 | dephosphorylation, refers to: D1-B |  | 8 h |  | conversion | 39.5% |
| C[C@@H](c1ccccc1)N(CC(N)=O)C(=O)CN(C(=O)CN(CCCCN)C(=O)CN(C(=O)CN(C(=O)CN(CCCCN)C(=O)CN(C(=O)CN(C(=O)CN(CCCCN)C(=O)CN(C(=O)CN(C(=O)CNCCCCN)[C@@H](C)c1ccccc1)[C@@H](C)c1ccccc1)[C@@H](C)c1ccccc1)[C@@H](C)c1ccccc1)[C@@H](C)c1ccccc1)[C@@H](C)c1ccccc1)[C@@H](C)c1ccccc1 | primary gingival epithelial cells, 3D | MTT |  | up to 256 µg/mL, 3 h |  | cytotoxicity | not toxic |
| Nc1cccc[n+]1Cc1cccc(C[n+]2ccccc2N)c1 | 3T3-L1 | MTT |  | concentration not given |  | cytotoxicity | not toxic |
| O=c1c2cc3ccccc3cc2nc(SCc2ccc(Cl)cc2)n1Cc1ccccc1 | BGM | morphology and trypan blue |  | 72 h |  | maximum non-toxic concentration | 50 µg/mL |
| Cc1c(C)c(C)[c-](C)c1C.Fc1c[c-]c(-c2ccccn2)cc1.[Cl-].[Ir+3] | A2780 | ICP-MS |  | IC50 |  | membrane and particulate iridium | 28.4% |
| COc1ccc(CNc2c(NC3CCN(Cc4ccccc4)CC3)c(=O)c2=O)cc1 | SH-SY5Y | MTT |  | 6.25 µM, 24 h |  | viability | 101 ± 1.79% |
| O=C(CCC(=O)OCCNC(=O)[C@H](Cc1ccccc1)NC(=O)[C@H](Cc1ccccc1)NC(=O)Cc1ccc2ccccc2c1)NCCS(=O)(=O)O | SK-OV-3 | LC-MS, refers to: precursor |  | 50 µM, 4 h, 37 °C |  | intracellular concentration | 62 µM |
| COc1cccc(CSc2nc3cc4ccccc4cc3c(=O)n2Cc2ccccc2)c1 | BGM | morphology and trypan blue |  | 72 h |  | maximum non-toxic concentration | 65 µg/mL |
| COc1ccc(CNc2c(NC3CCN(Cc4ccccc4)CC3)c(=O)c2=O)cc1OC | SH-SY5Y | MTT |  | 12.5 µM, 24 h |  | viability | 102 ± 0.97% |
| CC[C@@H](C)[C@@H](NC(=O)[C@@H](CCCCN)NC(=O)[C@H](NC(=O)[C@@H](Cc1c[nH]c2ccccc12)NC(=O)[C@@H](Cc1ccccc1)NC(=O)[C@@H](CCC(N)=O)NC(=O)[C@@H](CC(N)=O)NC(=O)[C@@H](CCCNC(=N)N)NC(=O)[C@@H](CCCNC(=N)N)NC(=O)[C@@H](CCSC)NC(=O)[C@@H](CCCCN)NC(=O)[C@@H](Cc1c[nH]c2ccccc12)NC(=O)[C@@H](CCCCN)NC(=O)[C@@H](CCCCN)NC(=O)CNC(=O)[C@@H](CCCCN)NC(=O)CNC(=O)[C@@H](CCC(N)=O)NC(=O)[C@@H](Cc1c[nH]cn1)NC(=O)[C@H](N)CCCNC(=N)N)[C@H](C)CC)C(=O)N[C@H](CCC(N)=O)C(=O)N[C@H](CCCNC(=N)N)C(=O)O | 16HBE14o- with CF sputum | refers to: cAMP |  | 25 µM, added: neutrophil elastase 20 µg/mL |  | remaining activity | 72% |
| Nc1ccc(CCNc2c(NC3CCN(Cc4ccccc4)CC3)c(=O)c2=O)cc1 | SH-SY5Y | MTT |  | 6.25 µM, 24 h |  | viability | 102 ± 2.78% |
| O=C1c2ccccc2C(=O)N1CCCSc1nc2cc3ccccc3cc2c(=O)n1Cc1ccccc1 | BGM | morphology and trypan blue |  | 72 h |  | maximum non-toxic concentration | 40 µg/mL |
| NCCCC[C@H](NC(=O)[C@H](Cc1ccccc1)NC(=O)[C@H](CCCCN)NC(=O)[C@H](Cc1ccccc1)NC(=O)[C@H](CCC(=O)O)NC(=O)[C@H](Cc1ccccc1)NC(=O)[C@H](CCC(=O)O)NC(=O)[C@@H](N)Cc1ccccc1)C(=O)O | hMSC | RP-HPLC | hydrogel, serum-free medium | day 6, hydrogel 25 mg/mL, 20 mM | baseline: day 0 | intact peptide remaining | 23.3 ± 0.1% |
| COc1ccc(Nc2c(NC3CCN(Cc4ccccc4)CC3)c(=O)c2=O)cc1 | SH-SY5Y | MTT |  | 12.5 µM, 24 h |  | viability | 102 ± 1.57% |
| CC[C@H](C)[C@H](NC(=O)CNC(=O)[C@H](CCCNC(=N)N)NC(=O)[C@H](CCCCN)NC(=O)CNC(=O)[C@H](CC(N)=O)NC(=O)CNC(=O)CNC(=O)CNC(=O)[C@H](CC(C)C)NC(=O)[C@H](C)NC(=O)CNC(=O)[C@H](Cc1c[nH]c2ccccc12)NC(=O)[C@H](Cc1ccc(O)cc1)NC(=O)CNC(=O)[C@H](CCCNC(=N)N)NC(=O)[C@H](CCSC)NC(=O)CNC(=O)[C@H](CCCCN)NC(=O)[C@H](CC(N)=O)NC(=O)[C@H](Cc1ccccc1)NC(=O)[C@H](CCCCN)NC(=O)[C@@H](N)CC(N)=O)C(=O)N[C@@H](CCCNC(=N)N)C(=O)NCC(=O)N[C@@H](Cc1ccc(O)cc1)C(=O)N[C@@H](CC(=O)O)C(=O)O | 3T3 fibroblasts | MTT |  | 1 nM to 10 µM, 24 h |  | cytotoxicity | not toxic |
| COc1cccc(CCNc2c(NC3CCN(Cc4ccccc4)CC3)c(=O)c2=O)c1 | SH-SY5Y | MTT |  | 12.5 µM, 24 h |  | viability | 77.87 ± 0.55% |
| CC(C)C[C@H](NC(=O)[C@H](CCCCN)NC(=O)[C@H](CC(C)C)NC(=O)[C@H](CC(C)C)NC(=O)[C@H](CCCCN)NC(=O)[C@H](CCCCN)NC(=O)[C@H](CC(C)C)NC(=O)[C@H](CC(C)C)NC(=O)[C@H](CCCCN)NC(=O)[C@H](CC(C)C)NC(=O)[C@H](CC(C)C)NC(=O)[C@H](CCCCN)NC(=O)[C@H](CCCCN)NC(=O)[C@@H](N)CC(C)C)C(N)=O | mouse erythrocytes | hemolysis |  | 1 h, 37 °C |  | HC10 | 12.3 µM |
